Results collected from several papers.
Each line is one published result; not all experiments were run side by side. Numbers after ± are the reported error.
PFF0160c E182D: Dihydroorotate dehydrogenase (quinone), mitochondrial (PFF0160c, Plasmodium falciparum, UniProt Q08210, E182D)
ACHE: Acetylcholinesterase (ACHE, Homo sapiens, UniProt P22303)
Sequence of UniProt P22303 (whole entry, looked up): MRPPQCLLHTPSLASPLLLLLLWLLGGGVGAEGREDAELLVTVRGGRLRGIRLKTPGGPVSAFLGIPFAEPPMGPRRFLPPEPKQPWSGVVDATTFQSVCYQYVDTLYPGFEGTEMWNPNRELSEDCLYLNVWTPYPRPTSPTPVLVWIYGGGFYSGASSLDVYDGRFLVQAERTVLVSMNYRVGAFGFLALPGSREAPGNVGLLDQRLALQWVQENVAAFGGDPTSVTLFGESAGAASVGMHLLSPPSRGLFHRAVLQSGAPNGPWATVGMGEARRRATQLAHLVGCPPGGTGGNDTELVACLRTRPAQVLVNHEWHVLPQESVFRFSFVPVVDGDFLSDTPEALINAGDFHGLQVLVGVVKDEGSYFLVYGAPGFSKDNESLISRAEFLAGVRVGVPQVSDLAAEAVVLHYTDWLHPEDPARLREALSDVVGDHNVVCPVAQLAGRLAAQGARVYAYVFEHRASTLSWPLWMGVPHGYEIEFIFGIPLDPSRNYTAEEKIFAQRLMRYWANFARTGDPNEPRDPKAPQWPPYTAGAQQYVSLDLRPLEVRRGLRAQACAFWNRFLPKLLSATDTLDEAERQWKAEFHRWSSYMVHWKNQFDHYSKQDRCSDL
Sequence of UniProt Q96P65 (whole entry, looked up): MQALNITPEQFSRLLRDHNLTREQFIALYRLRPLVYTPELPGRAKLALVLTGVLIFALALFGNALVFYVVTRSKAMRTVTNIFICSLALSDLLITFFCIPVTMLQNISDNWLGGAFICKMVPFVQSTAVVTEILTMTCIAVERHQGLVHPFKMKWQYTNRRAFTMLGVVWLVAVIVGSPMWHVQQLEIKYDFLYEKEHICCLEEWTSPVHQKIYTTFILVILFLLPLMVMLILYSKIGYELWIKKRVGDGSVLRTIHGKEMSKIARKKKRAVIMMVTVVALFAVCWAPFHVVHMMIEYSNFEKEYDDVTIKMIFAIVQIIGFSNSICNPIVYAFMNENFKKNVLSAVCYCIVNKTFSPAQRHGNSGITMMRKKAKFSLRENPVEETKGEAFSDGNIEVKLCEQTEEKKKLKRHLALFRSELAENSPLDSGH
Sequence of UniProt Q9NYY3 (whole entry, looked up): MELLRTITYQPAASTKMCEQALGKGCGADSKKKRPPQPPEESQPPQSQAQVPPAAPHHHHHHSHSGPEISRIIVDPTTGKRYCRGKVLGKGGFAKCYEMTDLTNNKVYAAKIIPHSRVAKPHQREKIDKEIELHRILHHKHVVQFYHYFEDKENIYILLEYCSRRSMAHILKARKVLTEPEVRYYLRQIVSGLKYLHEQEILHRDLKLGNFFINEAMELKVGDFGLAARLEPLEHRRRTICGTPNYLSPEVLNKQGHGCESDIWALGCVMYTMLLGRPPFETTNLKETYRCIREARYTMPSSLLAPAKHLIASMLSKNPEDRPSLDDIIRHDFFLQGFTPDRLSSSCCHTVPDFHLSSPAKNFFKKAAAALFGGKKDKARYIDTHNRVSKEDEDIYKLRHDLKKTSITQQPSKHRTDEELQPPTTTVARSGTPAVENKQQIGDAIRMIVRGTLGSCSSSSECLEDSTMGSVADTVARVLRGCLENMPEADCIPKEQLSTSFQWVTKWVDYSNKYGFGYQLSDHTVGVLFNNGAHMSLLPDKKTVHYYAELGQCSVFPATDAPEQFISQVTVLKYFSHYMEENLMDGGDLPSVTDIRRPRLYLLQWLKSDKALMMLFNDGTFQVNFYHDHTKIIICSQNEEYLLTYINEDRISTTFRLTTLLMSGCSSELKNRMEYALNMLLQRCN
Sequence of UniProt P10721 (whole entry, looked up): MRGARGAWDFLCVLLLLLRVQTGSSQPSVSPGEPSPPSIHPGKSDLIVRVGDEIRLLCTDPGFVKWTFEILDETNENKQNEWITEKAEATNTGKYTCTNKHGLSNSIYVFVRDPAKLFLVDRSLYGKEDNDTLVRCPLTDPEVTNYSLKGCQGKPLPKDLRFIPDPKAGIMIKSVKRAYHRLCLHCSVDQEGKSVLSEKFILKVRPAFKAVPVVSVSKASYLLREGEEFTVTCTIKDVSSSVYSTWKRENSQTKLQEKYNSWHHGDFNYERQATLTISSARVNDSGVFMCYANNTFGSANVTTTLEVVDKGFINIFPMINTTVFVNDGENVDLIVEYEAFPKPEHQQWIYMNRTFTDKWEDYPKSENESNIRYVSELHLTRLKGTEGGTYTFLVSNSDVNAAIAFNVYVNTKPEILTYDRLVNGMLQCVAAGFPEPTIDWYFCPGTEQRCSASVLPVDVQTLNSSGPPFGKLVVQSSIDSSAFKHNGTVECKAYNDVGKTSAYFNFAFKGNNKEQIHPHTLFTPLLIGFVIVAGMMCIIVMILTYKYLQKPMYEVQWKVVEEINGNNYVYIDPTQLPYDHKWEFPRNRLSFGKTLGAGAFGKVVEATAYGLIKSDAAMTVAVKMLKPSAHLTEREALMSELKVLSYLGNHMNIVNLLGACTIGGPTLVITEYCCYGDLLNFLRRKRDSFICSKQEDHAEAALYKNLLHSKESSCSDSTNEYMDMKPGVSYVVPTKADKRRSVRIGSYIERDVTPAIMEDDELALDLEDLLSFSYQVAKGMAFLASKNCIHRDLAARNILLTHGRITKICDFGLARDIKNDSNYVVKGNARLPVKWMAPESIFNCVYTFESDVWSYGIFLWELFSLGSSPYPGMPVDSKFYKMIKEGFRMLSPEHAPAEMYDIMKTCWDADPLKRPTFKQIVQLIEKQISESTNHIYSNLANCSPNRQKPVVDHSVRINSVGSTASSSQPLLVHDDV
Sequence of UniProt Q9NQ84 (whole entry, looked up): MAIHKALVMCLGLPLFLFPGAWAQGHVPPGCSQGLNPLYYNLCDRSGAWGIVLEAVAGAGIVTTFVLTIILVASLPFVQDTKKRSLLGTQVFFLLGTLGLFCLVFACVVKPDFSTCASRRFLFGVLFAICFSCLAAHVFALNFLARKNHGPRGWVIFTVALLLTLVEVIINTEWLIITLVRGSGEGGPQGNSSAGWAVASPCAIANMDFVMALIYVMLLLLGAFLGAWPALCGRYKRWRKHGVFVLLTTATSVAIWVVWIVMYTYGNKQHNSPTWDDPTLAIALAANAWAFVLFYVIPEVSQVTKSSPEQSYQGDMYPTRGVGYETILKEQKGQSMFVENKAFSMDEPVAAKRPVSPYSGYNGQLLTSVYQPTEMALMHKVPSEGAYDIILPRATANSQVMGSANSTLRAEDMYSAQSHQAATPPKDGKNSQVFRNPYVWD
Sequence of UniProt P15538 (whole entry, looked up): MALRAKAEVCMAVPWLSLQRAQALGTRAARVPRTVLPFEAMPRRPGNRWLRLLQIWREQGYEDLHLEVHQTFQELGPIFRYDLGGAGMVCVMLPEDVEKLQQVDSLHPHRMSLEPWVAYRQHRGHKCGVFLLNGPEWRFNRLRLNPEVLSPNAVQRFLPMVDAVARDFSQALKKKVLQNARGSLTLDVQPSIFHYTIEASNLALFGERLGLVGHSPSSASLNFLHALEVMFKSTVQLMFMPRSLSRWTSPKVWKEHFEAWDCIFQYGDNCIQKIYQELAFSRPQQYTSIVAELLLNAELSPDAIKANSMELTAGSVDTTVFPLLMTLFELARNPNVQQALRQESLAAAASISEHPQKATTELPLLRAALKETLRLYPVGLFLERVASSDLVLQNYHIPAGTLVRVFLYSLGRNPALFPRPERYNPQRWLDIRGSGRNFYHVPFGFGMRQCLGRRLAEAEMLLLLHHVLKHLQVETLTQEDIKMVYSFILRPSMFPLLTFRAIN
Sequence of UniProt O00748 (whole entry, looked up): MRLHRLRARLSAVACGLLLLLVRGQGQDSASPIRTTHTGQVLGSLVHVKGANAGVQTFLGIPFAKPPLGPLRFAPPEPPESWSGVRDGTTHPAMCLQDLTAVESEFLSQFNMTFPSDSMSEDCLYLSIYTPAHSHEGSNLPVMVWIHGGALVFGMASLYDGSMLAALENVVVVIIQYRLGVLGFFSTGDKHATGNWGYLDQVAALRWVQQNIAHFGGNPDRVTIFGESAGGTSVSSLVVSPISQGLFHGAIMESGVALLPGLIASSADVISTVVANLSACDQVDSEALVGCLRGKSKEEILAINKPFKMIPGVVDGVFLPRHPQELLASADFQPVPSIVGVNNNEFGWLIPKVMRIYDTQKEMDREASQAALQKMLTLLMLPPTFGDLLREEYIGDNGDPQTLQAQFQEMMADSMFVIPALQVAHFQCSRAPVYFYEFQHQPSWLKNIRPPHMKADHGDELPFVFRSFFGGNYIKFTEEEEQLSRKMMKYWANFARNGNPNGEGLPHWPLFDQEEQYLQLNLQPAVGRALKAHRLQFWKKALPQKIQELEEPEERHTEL
Sequence of UniProt Q62351 (whole entry, looked up): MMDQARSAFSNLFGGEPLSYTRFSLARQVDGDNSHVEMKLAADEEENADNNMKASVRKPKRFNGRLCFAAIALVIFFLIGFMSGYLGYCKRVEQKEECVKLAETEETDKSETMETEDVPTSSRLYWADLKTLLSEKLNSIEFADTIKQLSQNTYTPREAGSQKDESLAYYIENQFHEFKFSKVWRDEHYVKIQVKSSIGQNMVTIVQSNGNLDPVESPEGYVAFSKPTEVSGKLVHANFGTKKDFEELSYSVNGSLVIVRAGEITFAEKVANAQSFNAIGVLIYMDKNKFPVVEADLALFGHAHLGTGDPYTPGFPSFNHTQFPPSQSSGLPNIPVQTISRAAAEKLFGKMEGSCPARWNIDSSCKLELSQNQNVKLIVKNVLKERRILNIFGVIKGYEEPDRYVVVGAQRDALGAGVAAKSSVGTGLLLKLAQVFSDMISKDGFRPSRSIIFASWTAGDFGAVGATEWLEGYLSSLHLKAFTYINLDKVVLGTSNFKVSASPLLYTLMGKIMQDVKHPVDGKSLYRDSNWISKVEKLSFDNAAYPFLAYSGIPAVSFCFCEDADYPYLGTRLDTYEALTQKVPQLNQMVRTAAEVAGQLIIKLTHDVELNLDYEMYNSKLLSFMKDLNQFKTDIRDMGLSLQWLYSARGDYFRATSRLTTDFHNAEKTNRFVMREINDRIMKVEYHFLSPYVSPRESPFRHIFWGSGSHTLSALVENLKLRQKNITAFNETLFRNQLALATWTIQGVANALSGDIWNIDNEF

| Compound | target or system | assay | system | conditions | how to read | quantity | result |
| --- | --- | --- | --- | --- | --- | --- | --- |
| C[C@@H](NC(=O)c1ccc(C#Cc2cccc(F)c2)cn1)C(C)(C)O | Metabotropic glutamate receptor 5 (Grm5, Rattus norvegicus, UniProt P31424) | calcium mobilization, agonist | HEK293 cells, low receptor expression |  | relative to: glutamate maximum | maximum agonist efficacy | 65% |
| COc1c(O)c(I)c2c3c1-c1cc4c(cc1CC3N(C)CC2)OCO4 (stereo not drawn) | Alpha-1A adrenergic receptor (ADRA1A, Homo sapiens, UniProt P35348) | calcium flux, antagonist, FLIPR | CHO-K1 | with: norepinephrine |  | apparent Kb | 0.06 ± 0.009 µM |
| COCc1ccccc1C(=O)NCCOc1cc(C)cc(C)c1 | PFF0160c E182D | enzyme activity, DCIP colorimetric |  |  | relative to: E182D mutant over wild type | IC50 ratio | 0.4 |
| COc1ccc2c3c([nH]c2c1)[C@H](CC(C)C)N1C(=O)[C@H](CCC(=O)OC(C)(C)C)NC(=O)[C@@H]1C3 | UDP-glucuronosyltransferase 1A1 (UGT1A1, Homo sapiens, UniProt P22309) | glucuronidation, inhibitor | cell lysate | 5 µM, with: genistein |  | genistein glucuronide formation | decreased |
| COC(=O)[C@@]1(O)C[C@H]2O[C@]1(C)n1c3ccccc3c3c4c(c5c6ccccc6n2c5c31)C(=O)NC4 | Mitogen-activated protein kinase 3 (MAPK3, Homo sapiens, UniProt P27361) | ADP-Glo |  | 24.6 µM, with: substrate MBP |  | remaining activity | 113% |
| O=C(Nc1cccnn1)N1CCC(=Cc2cccc(Oc3ccc(C(F)(F)F)cn3)c2)CC1 | GABA transporter, rat | binding |  | 10 µM, with: [3H]GABA |  | inhibition | 10% |
| CC(C)(C)C(O)C(Oc1ccc(-c2ccccc2)cc1)n1cncn1 (stereo not drawn) | Glideosome-associated protein 50 (GAP50, Plasmodium falciparum, UniProt Q8I2X3) | binding, surface plasmon resonance |  | 1:1 binding model |  | kon | 2.81e+06 M⁻¹ s⁻¹ |
| CC(C)[C@@H]1NC(=O)[C@H](Cc2ccccc2)NC(=O)[C@@H]2NC(=O)[C@H](Cc3ccccc3)NC(=O)[C@@H]3CCCN3C(=O)CNC(=O)[C@H](Cc3ccccc3)NC(=O)[C@@H]3CNCCCC[C@@H](C(=O)O)NC(=O)[C@@H]4NC(=O)[C@H](CC(N)=O)NC(=O)CNC(=O)[C@H]([C@@H](O)C(=O)O)NC(=O)[C@H](CSC[C@@H](NC(=O)[C@H](CCC(N)=O)NC(=O)[C@H](CCCCNC(=O)c5ccc(NN)nc5)NC(=O)[C@@H](N)CS[C@H]4C)C(=O)N[C@@H](CS[C@H]2C)C(=O)N3)NC1=O [technetium-99m labelled] |  |  | rat, saline control, small intestine | intravenous, 2 h after tracer, tracer 2 h after reperfusion |  | tissue uptake | 0.39 ± 0.05 %ID/g |
| COc1ccc(N2C(=O)N(c3c(C)cccc3Cl)Cc3cnc(Nc4ccc(C5CCN(C)CC5)cc4OC)nc32)nc1 | Serine/threonine-protein kinase PLK2 (PLK2, Homo sapiens, UniProt Q9NYY3) | kinase activity |  | 0.5 µM |  | inhibition | 12% |
| CC(=O)C1C(=O)c2ccccc2C1=O | Bile acid receptor (NR1H4, Homo sapiens, UniProt Q96RI1) | coactivator recruitment, TR-FRET |  |  |  | IC50 | inactive |
| O=C(O)C(F)(F)C(F)(F)C(F)(F)C(F)(F)C(F)(F)C(F)(F)C(F)(F)F | Solute carrier organic anion transporter family member 2B1 (SLCO2B1, Homo sapiens, UniProt O94956) | substrate, uptake | CHO stably expressing SLCO2B1 | 1 min, 37 °C |  | Jmax | 1490 ± 543 pmol/min/mg protein |
| COc1cc(N)c(Cl)cc1C(=O)NC1CN2CCC1CC2 (stereo not drawn) | GPRC5C (Homo sapiens, UniProt Q9NQ84) | β-arrestin recruitment, TANGO luminescence |  | concentration not given | relative to: basal luminescence | log2 fold change | 0.298 |
| CC[C@@H](C)[C@@H](NC(=O)[C@@H](Cc1ccc(O)cc1)NC(=O)[C@H]1CCCN1C(=O)[C@@H](CCCNC(=N)N)NC(=O)[C@H](N)Cc1c[nH]cn1)C(=O)N[C@H](C)C(=O)N[C@H](Cc1c[nH]cn1)C(=O)N[C@H](CCCNC(=N)N)C(=O)N[C@H](CCCCNC(=O)c1cccc(S(=O)(=O)F)c1)C(=O)N[C@H](Cc1ccc(O)cc1)C(=O)N[C@H](CO)C(=O)N[C@H](Cc1ccccc1)C(N)=O | Transferrin receptor protein 1 (Tfrc, Mus musculus, UniProt Q62351) | flow cytometry | DC2.4 | 48 h, pH 6, replicate 2, unit not given | relative to: 0 h | surface TFRC expression | 0.736 |
| C=C(F)c1sc(CNCCCNc2cc(O)c3ccccc3n2)c(C)c1Br | ACHE |  | biochemical | concentration not given |  | activity class | inactive |
| C[C@H]1CN(c2n[nH]c3nc(N[C@H]4CC[C@H](NS(=O)(=O)CCC(F)(F)F)CC4)ncc23)CCO1 | Serine/threonine-protein kinase 17B (STK17B, Homo sapiens, UniProt O94768) | inhibitor, Kinobeads competition profiling |  | 0.16 µM | relative to: vehicle | relative abundance | 1.01 |
| Oc1ccc2ccc3cccc4ccc1c2c34 | Aryl hydrocarbon receptor (Danio rerio, UniProt Q9YGV3) | reporter gene, agonist, luciferase reporter | ZF-4 | 4.572 µM | relative to: vehicle control | fold change | 1.04 |
| O=C(c1ccc(Cl)cc1)N1CCN2C(=O)N(OC(=O)N3CCOc4ccccc43)C(=O)C2C1 (stereo not drawn) | Cocaine esterase (CES2, Homo sapiens, UniProt O00748) | enzyme activity, inhibitor, MS-based ABPP | SW-620 in situ | 10 µM, 2 h, 37 °C | relative to: compound over DMSO, lower = stronger inhibition | median ratio | 1.2 |

| Compound | target or system | assay | system | conditions | how to read | quantity | result |
| --- | --- | --- | --- | --- | --- | --- | --- |
| Nc1ncc(-c2nc(N3CCOCC3)nc(N3CCOCC3)n2)c(C(F)F)n1 | L-type calcium channel, dihydropyridine site | radioligand binding, antagonist ligand |  | 10 µM | relative to: control | remaining binding | 98.5% |
| [2H]c1c([2H])c([C@]2([2H])CCCN2C(=O)C(C)(C)Oc2ccc3cn[nH]c3c2)c([2H])c([2H])c1C([2H])([2H])[2H] | Mast/stem cell growth factor receptor Kit, autoinhibited (KIT, Homo sapiens, UniProt P10721) | KINOMEscan |  | 1 µM | relative to: DMSO control | remaining binding | 71% |
| C[C@@H](O)[C@H](NC(=O)[C@@H]1CSSC[C@H](NC(=O)[C@@H](Cc2ccccc2)NC(=O)CN2CCN(CC(=O)[O-])CCN(CC(=O)[O-])CCN(CC(=O)[O-])CC2)C(=O)N[C@@H](Cc2ccc(O)cc2)C(=O)N[C@H](Cc2c[nH]c3ccccc23)C(=O)N[C@@H](CCCCN)C(=O)N[C@@H]([C@@H](C)O)C(=O)N1)C(=O)O.[177Lu+3] | MEC1 treated with 50 µM zebularine | gamma counter | serum-free RPMI | 60 min, 37 °C |  | uptake | 1.23% |
| N=C(N)NCCC[C@@H]1NC(=O)[C@H](CCCCNC(=O)c2ccc(CNC34CNCCNCC(N)(CNCCNC3)CNCCNC4)cc2)NC(=O)[C@@H](Cc2ccc(O)cc2)NC(=O)[C@H](CC(=O)O)NC(=O)CNC1=O [copper-64 labelled] |  | ex vivo biodistribution | male athymic nude mouse, PC-3 tumour, heart | 7.4 MBq, 48 h |  | tissue uptake | 0.96 ± 0.11 %ID/g |
| CN1CCN(c2cc(-c3ccncc3)c(-c3ccc4ccccc4c3)nn2)CC1 | Pyroglutamylated RF-amide peptide receptor (QRFPR, Homo sapiens, UniProt Q96P65) | agonist, FLIPR |  | 12.5 µM |  | activation | 6.3% |
| Nc1ncnc2c1ncn2[C@@H]1O[C@H](COP(=O)(O)OP(=O)(O)OP(=O)(O)O)[C@@H](O)[C@H]1O | matB (Rhodopseudomonas palustris, UniProt Q6ND88, C106A/K488A/Q457C/R286C) | ATP binding |  | pH 7.5, 100 mM NaCl | relative to: bound over unbound | fluorescence ratio | 3.1 |
| C[C@]12CC[C@H]3[C@@H](CCC4=CC(=O)CC[C@@]43C)[C@@H]1CC[C@@H]2C(=O)CO | Cytochrome P450 11B1, mitochondrial (CYP11B1, Homo sapiens, UniProt P15538) | substrate |  | 100 µM, 37 °C, phospholipid vesicles |  | 11β-hydroxylation product formation rate | 30.5 ± 1.1 min⁻¹ |
| CCc1nc2nc(C)cc(Nc3cc(C)cc(C)c3)n2n1 | PFF0160c E182D | enzyme activity, DCIP colorimetric |  |  | relative to: E182D mutant over wild type | IC50 ratio | 27 |
| Cc1ccccc1NC(=O)Nc1ccc(CC(=O)N[C@@H](CCCCNC(=O)/C=C/c2cccnc2)C(=O)N[C@@H](CCCC(=O)O)C(=O)NC2(C(=O)NCCOCCOCCOCCOCC(=O)N[C@@H](CCCCNC(=S)Nc3ccc(CCCN(CCN4CCN(CP(=O)(O)O)CCN(CP(=O)(O)O)CC4)CC(=O)O)cc3)C(N)=O)CCCCC2)cc1 [gallium-68 labelled] |  |  | PBS | 2 h, 37 °C |  | intact tracer | > 95% |
| Oc1ccc(-c2cccc(Cl)c2)cc1Cl | Aryl hydrocarbon receptor (AHR, Homo sapiens, UniProt P35869) | reporter gene, antagonist | AZ-AHR cells | 24 h, with: TCDD 4.5 nM |  | IC25 | 10 µM |
| Cc1ccc(CCn2c3c(c4cc(Cl)ccc42)CN(C)CC3)cn1 | ACHE |  | biochemical | concentration not given |  | activity class | inactive |
| CO[C@H]1C[C@@H]2CC[C@@H](C)[C@@](O)(O2)C(=O)C(=O)N2CCCC[C@H]2C(=O)O[C@H]([C@H](C)C[C@@H]2CC[C@@H](OC(=O)NCCOCCOCCOCCOCCOCCOCCOCCOCCC(=O)N3CCc4cc(Cn5nc(-c6ccc7oc(N)nc7c6)c6c(N)ncnc65)ccc4C3)[C@H](OC)C2)C[C@@H](O)[C@H](C)/C=C(\C)[C@@H](O)[C@@H](OC)C(=O)[C@H](C)C[C@H](C)/C=C/C=C/C=C/1C |  |  | patients with advanced solid tumours | intravenous, 16 mg weekly, grade 3 or higher |  | AE leading to discontinuation | 25% |
| COc1cc(CCC[P+](c2ccccc2)(c2ccccc2)c2ccccc2)c(OC)c2c1OCO2.[I-] | BT-549 | SRB |  |  |  | GI50 | -5.97 log M |
| Clc1cc2c(cc1Cl)Oc1cc(Cl)c(Cl)cc1O2 | Uncharacterized protein (Takifugu rubripes, UniProt Q4JHL3) | reporter gene, agonist, dual-luciferase | COS-7 | 24 h | relative to: top over bottom | maximal fold induction | 2.01 ± 0.52 |
| O=C(CSc1nnc(O)n1Cc1ccccc1)Nc1ccccc1-c1ccccc1 | PFF0160c E182D | enzyme activity, DCIP colorimetric |  |  | relative to: E182D mutant over wild type | IC50 ratio | 1.4 |
| CC[C@H](C)[C@H](NC(=O)CNC(=O)[C@@H](N)CCCCN)C(=O)N[C@@H](CC(C)C)C(=O)N[C@@H](CCCCN)C(=O)N[C@@H](CCCNC(=N)N)C(=O)N[C@@H](CCC(=O)O)C(=O)N[C@@H](CCCCN)C(=O)N[C@@H](CCCNC(=N)N)C(=O)N[C@@H](CC(C)C)C(=O)N[C@@H](CCCNC(=N)N)C(=O)N[C@@H](CCCNC(=N)N)C(=O)N[C@@H](CCCCN)C(=O)N[C@@H](CC(N)=O)C(=O)N[C@H](C(=O)N[C@@H](Cc1c[nH]cn1)C(=O)N[C@@H](Cc1c[nH]c2ccccc12)C(=O)N1CCC[C@H]1C(=O)N[C@@H](CCC(=O)O)C(=O)N[C@@H](CCC(=O)O)C(=O)NCC(=O)N[C@@H](CCCCN)C(=O)N[C@@H](CC(C)C)C(=O)N[C@@H](CCCNC(=N)N)C(=O)N[C@@H](CCC(=O)O)C(=O)N[C@@H](Cc1ccc(O)cc1)C(=O)N[C@@H](Cc1ccccc1)C(=O)N[C@@H](Cc1ccc(O)cc1)C(=O)N[C@@H](Cc1ccccc1)C(=O)N[C@@H](CCC(=O)O)C(=O)N[C@@H](CC(C)C)C(=O)N[C@@H](CC(=O)O)C(=O)N[C@@H](CCC(=O)O)C(=O)N[C@@H](C)C(=O)N[C@@H](CCC(=O)O)C(=O)N[C@@H](CCCNC(=N)N)C(=O)N[C@H](C(=O)N[C@@H](CC(N)=O)C(=O)N[C@H](C(=O)O)C(C)C)C(C)C)C(C)C | protein phosphatase 1 complexes | bead binding, competitive inhibitor, inhibitor bead pulldown LC-MS/MS, refers to: WDR92 | HeLa and HEK293T cells, cell lysate | concentration not given | relative to: compound over control | log2 fold change | -5.22 |

For quick reference, copied from above:
| Compound | target or system | assay | system | conditions | how to read | quantity | result |
| --- | --- | --- | --- | --- | --- | --- | --- |
| COCc1ccccc1C(=O)NCCOc1cc(C)cc(C)c1 | PFF0160c E182D | enzyme activity, DCIP colorimetric |  |  | relative to: E182D mutant over wild type | IC50 ratio | 0.4 |
| COc1ccc2c3c([nH]c2c1)[C@H](CC(C)C)N1C(=O)[C@H](CCC(=O)OC(C)(C)C)NC(=O)[C@@H]1C3 | UDP-glucuronosyltransferase 1A1 (UGT1A1, Homo sapiens, UniProt P22309) | glucuronidation, inhibitor | cell lysate | 5 µM, with: genistein |  | genistein glucuronide formation | decreased |
| COC(=O)[C@@]1(O)C[C@H]2O[C@]1(C)n1c3ccccc3c3c4c(c5c6ccccc6n2c5c31)C(=O)NC4 | Mitogen-activated protein kinase 3 (MAPK3, Homo sapiens, UniProt P27361) | ADP-Glo |  | 24.6 µM, with: substrate MBP |  | remaining activity | 113% |
| O=C(Nc1cccnn1)N1CCC(=Cc2cccc(Oc3ccc(C(F)(F)F)cn3)c2)CC1 | GABA transporter, rat | binding |  | 10 µM, with: [3H]GABA |  | inhibition | 10% |
